Measurements of several laboratories.
Each line is one published result; not all experiments were run side by side. ± gives the spread as reported.
Cell line: HepG2

Compound | test | conditions | scale | quantity | value
Cc1cc(O)c(C(C)(C)C)cc1Sc1cc(C(C)(C)C)c(O)cc1C |  | MMP IC50, 1 h, together with: FCCP 1 µM | reference: basal OCR | maximal OCR | 167 ± 1.47%
c1cc(-c2cnn3cc(-c4ccc(N5CCNCC5)cc4)cnc23)c2cccnc2c1 | hepcidin mRNA expression, inhibitor, quantitative RT-PCR, measured: hepcidin mRNA | 90 min, together with: IL-6 100 ng/mL |  | IC50 | ~0.125 µM
Oc1c(Cl)cc(Cl)c(Cl)c1Cc1c(O)c(Cl)cc(Cl)c1Cl | Seahorse respirometry | concentration not given, 1 h, dosed at MMP IC50, together with: 1 µM FCCP | reference: basal | OCR | 171 ± 2.44%
CC[C@H](C)[C@H](NC(=O)[C@H](C)NC(=O)[C@@H]1CCCN1C(=O)C(C)(C)NC(=O)[C@H](CC(C)C)NC(=O)[C@H](CCC(N)=O)NC(=O)C(C)(C)NC(C)=O)C(=O)NC(C)(C)C(=O)N1CCC[C@H]1C(=O)N[C@](C)(CC)C(=O)N[C@@H](CC(C)C)C(=O)NC(C)(C)C(=O)N1CCC[C@H]1C(=O)N[C@H](CO)CC(C)C | cytotoxicity, MTS | 48 h |  | EC50 | > 25 µM
CC(C)[C@H]1c2ccc(F)cc2CC[C@@]1(CCN(C)CCCc1nc2ccccc2[nH]1)OC(=O)C1CC1 | phospholipidosis induction, inducer, high-content imaging | 24 h, primary screen |  | EC50 | 5 µM
COc1cc(/C=C/C(O)=C/C(=O)/C=C/c2ccc(O)cc2)ccc1O | cell growth or viability, MTT | 48 h |  | IC50 | 18.1 µg/mL
CC(N)Cc1c[nH]c2ccc(OCc3cccs3)cc12 (stereo not shown) | phospholipidosis induction, inducer, high-content imaging | 24 h, confirmation screen |  | EC50 | 20 ± 4.8 µM
CC(=O)NC(C)(C)C(=O)N[C@@H](C)C(=O)NC(C)(C)C(=O)N[C@@H](C)C(=O)NC(C)(C)C(=O)N[C@@H](C)C(=O)N[C@@H](CCC(N)=O)C(=O)NC(C)(C)C(=O)N[C@H](C(=O)NC(C)(C)C(=O)NCC(=O)N[C@@H](CC(C)C)C(=O)NC(C)(C)C(=O)N1CCC[C@H]1C(=O)N[C@H](C(=O)NC(C)(C)C(=O)NC(C)(C)C(=O)N[C@@H](CCC(N)=O)C(=O)N[C@@H](CCC(N)=O)C(=O)N[C@H](CO)Cc1ccccc1)C(C)C)C(C)C | cytotoxicity, MTS | 48 h |  | EC50 | 9.28 ± 0.84 µM
CN1CCN(C2Cc3ccccc3Sc3ccc(Cl)cc32)CC1 (stereo not shown) | phospholipidosis induction, inducer, high-content imaging | 24 h, primary screen |  | EC50 | 3.2 µM
N.N.[Cl][Pt][Cl] | cell growth or viability, CCK-8 |  |  | IC50 | 18.9 µM
CN(C)c1ccc(C(=C2C=CC(=[N+](C)C)C=C2)c2ccccc2)cc1 | cell growth or viability, LDH |  |  | IC50 | 63 µM
CC[C@@](C)(NC(=O)[C@@H]1CCCN1C(=O)C(C)(C)NC(=O)[C@@H](NC(=O)[C@H](C)NC(=O)[C@@H]1CCCN1C(=O)C(C)(C)NC(=O)[C@H](CC(C)C)NC(=O)[C@H](CCC(N)=O)NC(=O)C(C)(C)NC(C)=O)C(C)C)C(=O)N[C@@H](CC(C)C)C(=O)NC(C)(C)C(=O)N1CCC[C@H]1C(=O)N[C@H](CO)CC(C)C | cytotoxicity, MTS | 48 h |  | EC50 | > 25 µM
O=c1c(O)c(-c2ccc(O)cc2)oc2cc(O)cc(O)c12 | Seahorse respirometry | concentration not given, 1 h, dosed at MMP IC50, together with: 1 µM FCCP | reference: basal | OCR | 226.3 ± 1.29%
CC1=CC(=O)c2c(O)cccc2C1=O | cell growth or viability, MTT |  |  | IC50 | 5.74 µM
CCCCCCCCCc1ccc(O)cc1 |  | MMP IC50, 1 h, together with: FCCP 1 µM | reference: basal OCR | maximal OCR | 212.6 ± 1.39%
COc1ccc2c(c1)c(CCN1CCOCC1)c(C)n2C(=O)c1cccc(Cl)c1Cl | phospholipidosis induction, inducer, high-content imaging | 24 h, confirmation screen |  | EC50 | 13 ± 6.9 µM
